# Measured values gathered from unrelated publications.
# Lines come from different studies, so protocols differ. “And” joins repeats or separate records; there may be more than shown. ± marks the error that the study gave.
# Voltage-dependent P/Q-type calcium channel subunit alpha-1A: Voltage-dependent P/Q-type calcium channel subunit alpha-1A (Homo sapiens, UniProt O00555)
# UCHL1: Ubiquitin carboxyl-terminal hydrolase isozyme L1 (UCHL1, Homo sapiens, UniProt P09936)
# Rab GDP dissociation inhibitor beta with Rab1A: Rab GDP dissociation inhibitor beta, with Rab1A (Homo sapiens, UniProt P50395)
SMILES,tested on,test,test system,setting,scale,endpoint,value
Cn1cc(-c2cnc3ccc(NC(=O)Nc4ccc(F)c(Br)c4)cc3n2)cn1,"MAP3K4 (Homo sapiens, UniProt Q9Y6R4)","kinase binding, KiNativ profiling, item: Lys1 peptide",PANC-1 lysate,5 µM,,inhibition,4.9%
CNCC[C@H](Oc1cccc2ccccc12)c1cccs1,Voltage-dependent P/Q-type calcium channel subunit alpha-1A,"ion current, antagonist",HEK293,10 µM,,inhibition,28%
CC(C)C(Br)C(=O)Nc1ccc(Oc2ccccc2)cc1 (centres unmarked),UCHL1,"covalent, intact protein LC-MS",,12.5 µM,,labelling,15.7%
CC[C@@H]1[C@H](F)C(=O)N[C@@H]1COc1nccc2cc(C(N)=O)c(OC)cc12,"PLK1 (Homo sapiens, UniProt P53350)","ATP-site probe binding, ActivX profiling",THP-1 cell lysate,"0.01 mM, Lys2 site",,inhibition,-0.3%
Cc1cc(C)cc(COc2cc3c(cc2OCc2cc(C)cc(C)c2)[C@H]2C[C@](O)(Cc4cn(CC5CC5)nn4)C[C@H](C)N2CC3)c1,Rab GDP dissociation inhibitor beta with Rab1A,"GDI2-Rab1A interaction, NanoLuc complementation",,6.25 µM,,inhibition,86.5%
NC(=O)CCNC(=S)NCCCC[C@H](NS(=O)(=O)c1cccc(F)c1)C(=O)N[C@@H](Cc1c[nH]c2ccccc12)C(=O)NC1CCC1,"SIRT2 (Homo sapiens, UniProt Q8IXJ6)",deacylase activity,,"10 µM, added: NAD+ 500 µM",,inhibition,< 0%
CC(=O)c1cccc(CN2CCCC(CCC(=O)NCc3ccccc3F)C2)c1 (centres unmarked),Trypanosoma cruzi,"reporter translation, Renilla luciferase mRNA translation",cell-free extract,40 µM,reference: DMSO,inhibition,-13.5%
COc1ccc2c3c1O[C@H]1C[C@@H](O)C=C[C@@]31CCN(C)C2,Voltage-dependent P/Q-type calcium channel subunit alpha-1A,"ion current, antagonist",HEK293,10 µM,,inhibition,-3%
O=C(Nc1cccc2c(=O)cc(-c3nnn[nH]3)oc12)c1ccc(OCCCCc2ccccc2)cc1,"LRRC8A/LRRC8C (Homo sapiens, UniProt Q8IWT6+Q8TDW0, L134K/L136K)","ion current, whole-cell patch clamp",LRRC8-/- HCT cells,"10 µM, L134K/L136K mutant, +100 mV",,inhibition,65.1% and 78% and 84.2% and 85.5% and 90.8% and 87.2%
CCCCCCCCCCCCCCCCOP(=O)([O-])OCC[N+](C)(C)C,Trypanosoma cruzi,"reporter translation, Renilla luciferase mRNA translation",cell-free extract,40 µM,reference: DMSO,inhibition,-7.2%
Cc1ccc(NC(=O)C(C#N)=Cc2cccc(Cl)c2Cl)cc1,UCHL1,"covalent, intact protein LC-MS",,12.5 µM,,labelling,28.6%
COc1ccc(F)cc1C(=O)NCc1ccc(-c2nn([C@@H](C)C(F)(F)F)c(N)c2C(N)=O)cc1,"TEC (Homo sapiens, UniProt P42680)","target engagement, competitive chemoproteomics",human PBMCs,0.01 µM,,inhibition,23%
COc1cc2c(cc1OC)C(=O)C(CC1CCN(Cc3ccccc3)CC1)C2 (centres unmarked),Voltage-dependent P/Q-type calcium channel subunit alpha-1A,"ion current, antagonist",HEK293,30 µM,,inhibition,54%
Cc1cc(C)cc(COc2cc3c(cc2OCc2cc(C)cc(C)c2)[C@H]2C[C@](O)(Cc4cn(Cc5cc(C(F)(F)F)cc(C(F)(F)F)c5)nn4)C[C@H](C)N2CC3)c1,Rab GDP dissociation inhibitor beta with Rab1A,"GDI2-Rab1A interaction, NanoLuc complementation",,6.25 µM,,inhibition,94%
O=C1NC(=O)C(c2ccccc2)(c2ccccc2)N1,Voltage-dependent P/Q-type calcium channel subunit alpha-1A,"ion current, antagonist",HEK293,30 µM,,inhibition,27%
OO,"Histone acetyltransferase RTT109, with Vps75 (Saccharomyces cerevisiae, UniProt Q07794)","enzyme activity, inhibitor",,"250 µM, Rtt109-Vps75 complex, 1 mM DTT, added: [3H]acetyl-CoA",,inhibition,3 ± 3%
Cc1cc(-c2ccnc3[nH]cc(F)c23)cc(F)c1[C@@]1(O)[C@H](C)CN(C(=O)CN)C[C@@H]1C,"LATS1 (Homo sapiens, UniProt O95835)","ATP probe binding, KiNativ, item: Lys2 site",HEK293T cell lysate,10 µM,,inhibition,94.5%
O=C(OC[C@H]1O[C@@H](OC(=O)c2cc(O)c(O)c(O)c2)[C@H](OC(=O)c2cc(O)c(O)c(O)c2)[C@@H](OC(=O)c2cc(O)c(O)c(O)c2)[C@@H]1OC(=O)c1cc(O)c(O)c(O)c1)c1cc(O)c(O)c(O)c1,"PDIA6 (Homo sapiens, UniProt Q15084)",di-eosin-GSSG reductase activity,,"20 µM, 15 min",,inhibition,inhibited
CN1C(N)=N[C@](C)(c2cc(NC(=O)c3ccc(F)cn3)ccc2F)CS1(=O)=O,Voltage-dependent P/Q-type calcium channel subunit alpha-1A,"ion current, antagonist",,10 µM,,inhibition,31%
[2H]c1cc(C)c(NC(=O)c2cnc(Nc3cc(N4CCCCC4)nc(C)n3)s2)c(Cl)c1,"TNK2 (Homo sapiens, UniProt Q07912)",,,0.001 µM,,inhibition,> 50%
